Published values of several laboratories.
Parts stem from different laboratories: compare values within a part only. Substitutions count along the parent as printed.

Set 1 — target: CREB5, bZIP domain (human); method: DHFR protein complementation; sample: yeast; reference: wild-type JUN-FOS pair; direction: higher = stronger binding; endpoint: binding fitness
Setting: single substitutions, most at no-binding floor
Starting sequence: JUN, bZIP domain (human); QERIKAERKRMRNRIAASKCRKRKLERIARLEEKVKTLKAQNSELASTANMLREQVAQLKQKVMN; partner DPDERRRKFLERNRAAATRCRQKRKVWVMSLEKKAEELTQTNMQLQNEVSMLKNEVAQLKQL
E32F: -0.804 natural log
K39E: -0.0627 natural log
N42V: -1.07 natural log
A57I: -0.454 natural log
L38D: -1.52 natural log
S47L: -0.35 natural log
V56K: -0.791 natural log
Q55K: -0.406 natural log
A40D: -0.233 natural log
A29I: -0.273 natural log
T37I: -0.308 natural log
Q41P: -1.39 natural log
Q58H: -0.367 natural log
R30M: -0.2 natural log
A49F: -1.33 natural log

Set 2 — method: RNA Bind-n-Seq; molecule type: RNA; sample: in vitro; concentration: not given; reference: input RNA pool; direction: higher = stronger binding; endpoint: bound/input enrichment
Target: RING finger protein unkempt homolog, zinc fingers 1-6, GST-SBP tag (UNK, Homo sapiens, UniProt Q9C0B0, residues 30-357)
Setting: RNA with constant flanks, human and mouse sites, ends assumed
Construct (chain): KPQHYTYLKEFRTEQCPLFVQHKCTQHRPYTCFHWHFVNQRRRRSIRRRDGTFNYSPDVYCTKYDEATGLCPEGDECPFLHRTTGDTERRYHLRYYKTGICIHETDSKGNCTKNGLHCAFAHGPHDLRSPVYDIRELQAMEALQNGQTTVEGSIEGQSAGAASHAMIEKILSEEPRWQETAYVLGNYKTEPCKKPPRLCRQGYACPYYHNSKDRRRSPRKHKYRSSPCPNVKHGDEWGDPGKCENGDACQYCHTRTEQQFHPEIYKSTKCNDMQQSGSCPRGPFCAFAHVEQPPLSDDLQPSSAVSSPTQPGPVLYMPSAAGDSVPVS
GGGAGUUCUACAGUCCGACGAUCUUCUGAAGGCAGCUGCAAGGCCAUUUCAUUUACAUUAGGUUCCAUGGCACAGGAGCUUUGUUACUGUAAAACUAAGAAAAUGAAUUUGCACAUUGUAUAGAAGAGUUCUUUAGGAAGGUGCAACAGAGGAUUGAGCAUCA: 0.643 ratio
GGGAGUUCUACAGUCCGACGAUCGGAUUCAGGAAAAUGGCUCUCUUAUCACCAUCCUGGUCAUUGCUGGUGUCUUCUGGAUCCACCGGCUUAUCAAGUUUAUCUAUAACAUUUGCUGCUAUUGGGAGAUCCACUCCUUCUACCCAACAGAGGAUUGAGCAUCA: 0.634 ratio
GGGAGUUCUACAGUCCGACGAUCGGCAUGAAGGACGAUCGUCGUGACAGAUACUCUGCAGGCAAAAGGGGUGGAUUUAAUACCUUUAGAGACAGGGAAAACUAUGACAGAGGCUACUCUAAUCUGCUUAAGAGAGAUUUUGGGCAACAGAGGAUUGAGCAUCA: 0.624 ratio
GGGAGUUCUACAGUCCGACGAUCCUGAAUGAUUUUGGCUUCAUGAUCUUUCACUCACCAUAUUGUAAACUGGUGCAGAAAUCUCUAGCUCGGAUGUUCCUGAAUGACUUUCUUAAUGAUCAAAACAGAGAUAAAAACAGUAUUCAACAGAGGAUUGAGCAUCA: 0.205 ratio
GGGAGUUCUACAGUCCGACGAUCAACUCAAACCCAGCCCUCAAUGACAACCUAGAGAAGGGACUCCUGAAAGCCCUGAAGGUUCUAGACAAUUACCUGACAUCCCCCCUCCCAGAAGAAGUGGAUGAAACCAGCGCCGAAGAUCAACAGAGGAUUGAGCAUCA: 0.747 ratio
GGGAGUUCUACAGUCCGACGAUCAAAUCCUGGAAGGGCUUAAUCCAGGCCUUACUGGAUGCUGCUAUUGAUUUUGAUCUUUUAGAAGACGAGGAAAGCAAAAAGUUUCAGAAGUGUCUCCAUGAAGACAAGAACCUCGUCCAUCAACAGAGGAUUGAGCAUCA: 0.261 ratio
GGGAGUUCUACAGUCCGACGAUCGCUGGUCUUUUGGAAAAAAAAUGGACAUCUGUUAUUAGAUUACAAAAGAAGGUUAUGGAAUUAGAAUCAAAGCUAAAUGAAGCAAAAGAAGAAUUUACGUCAGGUGGACCUCUUGGUCAGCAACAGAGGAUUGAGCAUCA: 1.45 ratio
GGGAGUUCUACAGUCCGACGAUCAUAAUGUGUGUGGCUGGUAUUGGACUUGUUGUAUUAUUCUUCAGUUGGAUGCUCUCUAUUUUUAGAUCUAAAUAUCAUGGCUACCCAUACAGCUUUCUGAUGAGUUAAAAAGGUCCCAGACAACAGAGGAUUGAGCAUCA: 0.375 ratio
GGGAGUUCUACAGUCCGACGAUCCCUUAGGUAACCCUGGUCUGACUAACUAAAGACUUCCCCUCAUGUCACUCCUGGUGUAUAUAGGUCACUGCCAAGAAGUUCUGCUCCAUCAUUGGCCUUGCCCUUCUCUAUGUCACCAAGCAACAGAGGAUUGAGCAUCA: 0.216 ratio
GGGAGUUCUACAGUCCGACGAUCUUUCAGGGAAAUAAUUUUCCAGUUGUUUUUGCUAUAUUCUGCAAAUAAAAAGUGUGUGUUUCCUUUUUUCCACCUAAACUUUGGUAGGAAACAGACUAAAGCAGACAAACAUUUCUUGUUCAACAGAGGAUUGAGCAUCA: 0.127 ratio
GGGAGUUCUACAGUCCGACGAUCGGUGAGCUUCAUUUUCUCCAAAUUGGAGGAACCUGUGAUGAUAUUGAUGAAGCUGAUAUACUAGUGGAUGGAUCUCUUUCUAAAGGAAUAGAACCAUCUUCAGAAGGUUCCAAACCUUUACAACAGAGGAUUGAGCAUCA: 0.0695 ratio

Set 3 — target: CCNB3, cyclin fold, Cln2 fusion (human); method: yeast growth competition, sequencing; sample: yeast; setting: strong parent motif; reference: not given; direction: higher = stronger binding; endpoint: normalised enrichment score
Starting sequence: PKN2 docking peptide (human); VSAVRKLDFSDTM
VSAVRKFDFSDTM [L7F]: -0.0984
VSAVRKLDMSDTM [F9M]: 0.244
VEAVRKLDFSDTM [S2E]: 0.369
VSAVRKTDFSDTM [L7T]: 0.00976
VSAVRKLDYSDTM [F9Y]: 0.227
VSAMRKLDFSDTM [V4M]: 0.414
VSAVRKLDSSDTM [F9S]: -0.0704
VSAVRKLDFSMTM [D11M]: 1.95
VSAVRKLLFSDTM [D8L]: 0.859
VSAVRKLDFEDTM [S10E]: 1.14
VSAVWKLDFSDTM [R5W]: 0.163
VVAVRKLDFSDTM [S2V]: 0.989
VSAVKKLDFSDTM [R5K]: 0.584
VSAVMKLDFSDTM [R5M]: 0.168

Set 4 — method: RNA Bind-n-Seq; molecule type: RNA; sample: in vitro; concentration: 200 nM; setting: whole 134-nt RNA, ends assumed; added: 150 mM KCl; reference: input library; direction: higher = stronger binding; endpoint: log2 enrichment
Target: Ras GTPase-activating protein-binding protein 1, full length (G3BP1, Homo sapiens, UniProt Q13283)
Chain of UniProt Q13283 (whole entry, looked up): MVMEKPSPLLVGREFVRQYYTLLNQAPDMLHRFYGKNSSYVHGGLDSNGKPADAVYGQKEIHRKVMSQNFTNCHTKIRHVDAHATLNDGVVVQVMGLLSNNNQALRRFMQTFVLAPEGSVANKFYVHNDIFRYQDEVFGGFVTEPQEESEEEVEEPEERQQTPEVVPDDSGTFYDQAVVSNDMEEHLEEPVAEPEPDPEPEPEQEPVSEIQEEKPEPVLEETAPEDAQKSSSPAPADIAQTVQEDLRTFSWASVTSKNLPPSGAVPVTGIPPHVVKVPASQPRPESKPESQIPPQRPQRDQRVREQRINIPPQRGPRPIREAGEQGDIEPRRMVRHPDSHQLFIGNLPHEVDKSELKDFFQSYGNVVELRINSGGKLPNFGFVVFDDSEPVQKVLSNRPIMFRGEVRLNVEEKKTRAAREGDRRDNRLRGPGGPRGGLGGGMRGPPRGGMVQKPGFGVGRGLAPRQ
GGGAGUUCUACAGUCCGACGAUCACCAUGCAGGUGGGCAUCUUUGGGAAGUGGGCCAAGGGGGGGAUAGGGAGGGGGGUAACACUUUGGGAACAGGUGGUCCCAGGUCGUUUCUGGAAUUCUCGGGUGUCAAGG: 1.45
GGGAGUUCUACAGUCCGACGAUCUGGCCCUGGUGGCAUGCGGGUAGGAAGAGGUGGCCUCAUGGAUCGUGGUGGUCCCGGUGGAAUGUUCAGAGGUGGCCGUGGUGGAGACAGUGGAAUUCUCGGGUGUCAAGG: 0.205
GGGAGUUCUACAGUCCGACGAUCCAAGUCCUGUGCUACACAUCGUAUGUACCGAAUCGGGGUUUGGGGUGGGGUGGGGAAAGUAUUAUGUUACGCCGUUCGGAUCUGCACUUCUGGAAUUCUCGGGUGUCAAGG: 1.12
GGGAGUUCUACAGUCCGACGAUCGUCCUGUGCUACACAUCGUAUGUACCGAAUCGGUUUUUUGGGUUUUUUGGGUUUUUUGGAAAGUAUUAUGUUACGCCGUUCGGAUCUGCAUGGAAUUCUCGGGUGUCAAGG: -0.924
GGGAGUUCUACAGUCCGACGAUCAGUCCUGUGCUACACAUCGUAUGUACCGAAUCGGGAAAGGGUUUGGGAAAAAAAGGGAAAGUAUUAUGUUACGCCGUUCGGAUCUGCACUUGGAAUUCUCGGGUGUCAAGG: -0.585
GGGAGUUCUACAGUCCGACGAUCGCAGGAAGUAAAAACAAAUGGAAAUGCUUCGGAUAGUGGCAGGGGUGAAAGUUGCUAAGGAAAGGGUGGGAUGGGAGUGGGUAAAGAGUUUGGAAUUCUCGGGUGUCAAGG: 0.734
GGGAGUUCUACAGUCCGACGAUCCAAGUCCUGUGCUACACAUCGUAUGUACCGAAUCGGCCCGGGGCCCGGGGCCCGGAAAGUAUUAUGUUACGCCGUUCGGAUCUGCACUUCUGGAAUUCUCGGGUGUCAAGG: -0.854
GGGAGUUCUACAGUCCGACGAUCUCAAGUCCUGUGCUACACAUCGUAUGUACCGAAUCGGGAGGGUUUGGGAAAGGGAAAGUAUUAUGUUACGCCGUUCGGAUCUGCACUUCCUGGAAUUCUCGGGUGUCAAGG: 1.04
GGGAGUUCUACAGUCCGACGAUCUGGGAGGUGGAUUUUGUUUAUCUUUUUAGCUCAUUUCCAGGGGUGGGAAUUUUUUUUUAAUAUGUGUCAUGAAUAAAGUUGUUUUUGAAAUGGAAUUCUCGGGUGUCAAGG: 0.209

Excerpt of the above (set 2):
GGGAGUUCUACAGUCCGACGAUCCUGAAUGAUUUUGGCUUCAUGAUCUUUCACUCACCAUAUUGUAAACUGGUGCAGAAAUCUCUAGCUCGGAUGUUCCUGAAUGACUUUCUUAAUGAUCAAAACAGAGAUAAAAACAGUAUUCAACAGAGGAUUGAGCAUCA: 0.205 ratio
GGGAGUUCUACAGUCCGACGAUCUUUCAGGGAAAUAAUUUUCCAGUUGUUUUUGCUAUAUUCUGCAAAUAAAAAGUGUGUGUUUCCUUUUUUCCACCUAAACUUUGGUAGGAAACAGACUAAAGCAGACAAACAUUUCUUGUUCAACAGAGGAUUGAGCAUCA: 0.127 ratio
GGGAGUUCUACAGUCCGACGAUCAUAAUGUGUGUGGCUGGUAUUGGACUUGUUGUAUUAUUCUUCAGUUGGAUGCUCUCUAUUUUUAGAUCUAAAUAUCAUGGCUACCCAUACAGCUUUCUGAUGAGUUAAAAAGGUCCCAGACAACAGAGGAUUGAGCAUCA: 0.375 ratio
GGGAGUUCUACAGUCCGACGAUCGGUGAGCUUCAUUUUCUCCAAAUUGGAGGAACCUGUGAUGAUAUUGAUGAAGCUGAUAUACUAGUGGAUGGAUCUCUUUCUAAAGGAAUAGAACCAUCUUCAGAAGGUUCCAAACCUUUACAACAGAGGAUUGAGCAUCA: 0.0695 ratio
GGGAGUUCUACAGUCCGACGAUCGCUGGUCUUUUGGAAAAAAAAUGGACAUCUGUUAUUAGAUUACAAAAGAAGGUUAUGGAAUUAGAAUCAAAGCUAAAUGAAGCAAAAGAAGAAUUUACGUCAGGUGGACCUCUUGGUCAGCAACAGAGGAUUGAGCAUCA: 1.45 ratio
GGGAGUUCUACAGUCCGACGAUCCCUUAGGUAACCCUGGUCUGACUAACUAAAGACUUCCCCUCAUGUCACUCCUGGUGUAUAUAGGUCACUGCCAAGAAGUUCUGCUCCAUCAUUGGCCUUGCCCUUCUCUAUGUCACCAAGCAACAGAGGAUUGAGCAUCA: 0.216 ratio
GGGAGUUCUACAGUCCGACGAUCGGAUUCAGGAAAAUGGCUCUCUUAUCACCAUCCUGGUCAUUGCUGGUGUCUUCUGGAUCCACCGGCUUAUCAAGUUUAUCUAUAACAUUUGCUGCUAUUGGGAGAUCCACUCCUUCUACCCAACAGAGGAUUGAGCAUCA: 0.634 ratio
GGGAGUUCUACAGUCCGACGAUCAACUCAAACCCAGCCCUCAAUGACAACCUAGAGAAGGGACUCCUGAAAGCCCUGAAGGUUCUAGACAAUUACCUGACAUCCCCCCUCCCAGAAGAAGUGGAUGAAACCAGCGCCGAAGAUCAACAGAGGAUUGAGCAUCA: 0.747 ratio
